# Assay results from different studies.
# Numbers after ± are the reported error.
SMILES,host,sample,route,dose,time,notes,tissue uptake
CCCC[C@H](NC(=O)CCCCCCCNC(=O)CN1CCN(CC(=O)O)CCN(CC(=O)O)CC1)C(=O)N[C@H]1CC(=O)NCCCC[C@@H](C(N)=O)NC(=O)[C@H](Cc2c[nH]c3ccccc23)NC(=O)[C@H](CCCNC(=N)N)NC(=O)[C@@H](Cc2ccccc2)NC(=O)[C@H](Cc2c[nH]cn2)NC1=O [copper-64 labelled],C57 mice,tumor,intravenous,0.37 MBq,0.5 h,,5.69 ± 0.23 %ID/g
Cc1cc(O)cc(C)c1C[C@H](NC(=O)[C@@H]1CCCN1C(=O)[C@H](CCCNC(=N)N)NC(=O)[C@H](CCCNC(=N)N)N(C)C(=O)[C@@H]1CCCN1C(=O)[C@H](CCCCN)NC(=O)[C@@H](CC(C)C)NC(=O)[C@@H](CC(C)C)NC(=O)[C@@H](CC(C)C)NC(=O)[C@@H](CC(C)C)NC(=O)CN1CCN(CC(=O)O)CCN(CC(=O)O)CCN(CC(=O)O)CC1)C(=O)N[C@H](C(=O)N[C@@H](CC(C)C)C(=O)O)C(C)(C)C [lutetium-177 labelled],CF-1 mouse,blood,iv,370 kBq,4 h,,0.03 ± 0.03 %ID/g
CC(C)C[C@H](NC(=O)CN1CCN(CC(=O)O)CCN(CC(=O)O)CC1)C(=O)N[C@@H](CC(C)C)C(=O)N[C@@H](CC(C)C)C(=O)N[C@@H](CC(C)C)C(=O)N[C@@H](CCCNC(=N)N)C(=O)N[C@H](C(=O)N[C@@H](CCCCN)C(=O)N[C@@H](CCCNC(=N)N)C(N)=O)C(C)C [copper-64 labelled],"CD1 mouse, male",heart,intravenous,,15 min,"blocked, unlabelled peptide 0.1 µmol",4.3 ± 0.7 %ID/g
N=C(N)NCCC[C@@H]1NC(=O)[C@H](CCCCNC(=O)CC[C@H](NC(=O)CC[C@H](NC(=O)CN2CCN(CC(=O)O)CCN(CC(=O)O)CCN(CC(=O)O)CC2)C(=O)N[C@@H](CCC(=O)NCCCC[C@@H]2NC(=O)[C@@H](Cc3ccccc3)NC(=O)[C@H](CC(=O)O)NC(=O)CNC(=O)[C@H](CCCNC(=N)N)NC2=O)C(=O)NCCCC[C@@H]2NC(=O)[C@@H](Cc3ccccc3)NC(=O)[C@H](CC(=O)O)NC(=O)CNC(=O)[C@H](CCCNC(=N)N)NC2=O)C(=O)NCCCC[C@@H]2NC(=O)[C@@H](Cc3ccccc3)NC(=O)[C@H](CC(=O)O)NC(=O)CNC(=O)[C@H](CCCNC(=N)N)NC2=O)NC(=O)[C@@H](Cc2ccccc2)NC(=O)[C@H](CC(=O)O)NC(=O)CNC1=O [indium-111 labelled],female athymic nu/nu mice,lungs,intravenous,,72 h,,0.62 ± 0.36 %ID/g
CCCC[C@H](NC(=O)CNC(=O)CNC(=O)CN1CCN(CC(=O)O)CCN(CC(=O)O)CCN(CC(=O)O)CC1)C(=O)N[C@H]1CC(=O)NCCCC[C@@H](C(N)=O)NC(=O)[C@H](Cc2c[nH]c3ccccc23)NC(=O)[C@H](CCCNC(=N)N)NC(=O)[C@@H](Cc2ccccc2)NC(=O)[C@H](Cc2c[nH]cn2)NC1=O [lutetium-177 labelled],"C57 mouse, female",intestines,intravenous,0.037 MBq,4 h,,1.04 ± 0.51 %ID
N=C(N)NCCC[C@@H]1NC(=O)[C@H](CCCCNC(=O)CNC(=O)CNC(=O)CNC(=O)CC[C@H](NC(=O)CNC(=O)CNC(=O)CNC(=O)CC[C@H](NC(=O)CN2CCN(CC(=O)O)CCN(CC(=O)O)CCN(CC(=O)O)CC2)C(=O)NCC(=O)NCC(=O)NCC(=O)N[C@@H](CCC(=O)NCC(=O)NCC(=O)NCC(=O)NCCCC[C@@H]2NC(=O)[C@@H](Cc3ccccc3)NC(=O)[C@H](CC(=O)O)NC(=O)CNC(=O)[C@H](CCCNC(=N)N)NC2=O)C(=O)NCC(=O)NCC(=O)NCC(=O)NCCCC[C@@H]2NC(=O)[C@@H](Cc3ccccc3)NC(=O)[C@H](CC(=O)O)NC(=O)CNC(=O)[C@H](CCCNC(=N)N)NC2=O)C(=O)NCC(=O)NCC(=O)NCC(=O)NCCCC[C@@H]2NC(=O)[C@@H](Cc3ccccc3)NC(=O)[C@H](CC(=O)O)NC(=O)CNC(=O)[C@H](CCCNC(=N)N)NC2=O)NC(=O)[C@@H](Cc2ccccc2)NC(=O)[C@H](CC(=O)O)NC(=O)CNC1=O [indium-111 labelled],female athymic nu/nu mice,muscle,intravenous,111 kBq,4 h,,0.8 ± 0.11 %ID/g
CCCC[C@H](NC(=O)COCCOCCNC(=O)CN1CCN(CC(=O)O)CCN(CC(=O)O)CC1)C(=O)N[C@H]1CC(=O)NCCCC[C@@H](C(N)=O)NC(=O)[C@H](Cc2c[nH]c3ccccc23)NC(=O)[C@H](CCCNC(=N)N)NC(=O)[C@@H](Cc2ccccc2)NC(=O)[C@H](Cc2c[nH]cn2)NC1=O [copper-64 labelled],C57 mice,stomach,intravenous,0.37 MBq,24 h,,0.32 ± 0.15 %ID/g
N=C(N)NCCC[C@@H]1NC(=O)[C@H](CCCCNC(=O)CCOCCOCCOCCOCCNC(=O)CC[C@H](NC(=O)CCOCCOCCOCCOCCNC(=O)CN2CCN(CC(=O)O)CCN(CC(=O)O)CCN(CC(=O)O)CC2)C(=O)NCCOCCOCCOCCOCCC(=O)NCCCC[C@@H]2NC(=O)[C@@H](Cc3ccccc3)NC(=O)[C@H](CC(=O)O)NC(=O)CNC(=O)[C@H](CCCNC(=N)N)NC2=O)NC(=O)[C@@H](Cc2ccccc2)NC(=O)[C@H](CC(=O)O)NC(=O)CNC1=O [copper-64 labelled],"athymic nu/nu mouse, female",muscle,intravenous,,0.5 h,,1.28 ± 0.11 %ID/g
N=C(N)NCCC[C@@H]1NC(=O)[C@H](CCCCNC(=O)CNC(=O)CNC(=O)CNC(=O)CC[C@H](NC(=O)CNC(=O)CNC(=O)CNC(=O)CN2CCN(CC(=O)O)CCN(CC(=O)O)CCN(CC(=O)O)CC2)C(=O)NCC(=O)NCC(=O)NCC(=O)NCCCC[C@@H]2NC(=O)[C@@H](Cc3ccccc3)NC(=O)[C@H](CC(=O)O)NC(=O)CNC(=O)[C@H](CCCNC(=N)N)NC2=O)NC(=O)[C@@H](Cc2ccccc2)NC(=O)[C@H](CC(=O)O)NC(=O)CNC1=O [indium-111 labelled],female athymic nu/nu mice,lungs,intravenous,,72 h,,0.32 ± 0.06 %ID/g
CSCC[C@H](NC(=O)[C@H](CC(C)C)NC(=O)[C@H](Cc1c[nH]cn1)NC(=O)CNC(=O)[C@@H](NC(=O)[C@H](C)NC(=O)[C@H](Cc1c[nH]c2ccccc12)NC(=O)[C@H](CCC(N)=O)NC(=O)CCOCCOCCOCCOCCNC(=O)CN1CCN(CC(=O)O)CCN(CC(=O)O)CCN(CC(=O)O)CC1)C(C)C)C(N)=O [indium-111 labelled],"Swiss nu/nu mouse, male, PC-3 tumour xenograft",colon,intravenous,10 pmol,24 h,,1 ± 0.4 %ID/g

# A few entries again:
SMILES,host,sample,route,dose,time,notes,tissue uptake
N=C(N)NCCC[C@@H]1NC(=O)[C@H](CCCCNC(=O)CC[C@H](NC(=O)CC[C@H](NC(=O)CN2CCN(CC(=O)O)CCN(CC(=O)O)CCN(CC(=O)O)CC2)C(=O)N[C@@H](CCC(=O)NCCCC[C@@H]2NC(=O)[C@@H](Cc3ccccc3)NC(=O)[C@H](CC(=O)O)NC(=O)CNC(=O)[C@H](CCCNC(=N)N)NC2=O)C(=O)NCCCC[C@@H]2NC(=O)[C@@H](Cc3ccccc3)NC(=O)[C@H](CC(=O)O)NC(=O)CNC(=O)[C@H](CCCNC(=N)N)NC2=O)C(=O)NCCCC[C@@H]2NC(=O)[C@@H](Cc3ccccc3)NC(=O)[C@H](CC(=O)O)NC(=O)CNC(=O)[C@H](CCCNC(=N)N)NC2=O)NC(=O)[C@@H](Cc2ccccc2)NC(=O)[C@H](CC(=O)O)NC(=O)CNC1=O [indium-111 labelled],female athymic nu/nu mice,lungs,intravenous,,72 h,,0.62 ± 0.36 %ID/g
CCCC[C@H](NC(=O)CNC(=O)CNC(=O)CN1CCN(CC(=O)O)CCN(CC(=O)O)CCN(CC(=O)O)CC1)C(=O)N[C@H]1CC(=O)NCCCC[C@@H](C(N)=O)NC(=O)[C@H](Cc2c[nH]c3ccccc23)NC(=O)[C@H](CCCNC(=N)N)NC(=O)[C@@H](Cc2ccccc2)NC(=O)[C@H](Cc2c[nH]cn2)NC1=O [lutetium-177 labelled],"C57 mouse, female",intestines,intravenous,0.037 MBq,4 h,,1.04 ± 0.51 %ID
